Assay results collected from several papers.
Protocols differ between the studies behind these lines.
Target: Amine oxidase [flavin-containing] B (MAOB, Homo sapiens, UniProt P27338)
Chain of UniProt P27338 (whole entry, looked up): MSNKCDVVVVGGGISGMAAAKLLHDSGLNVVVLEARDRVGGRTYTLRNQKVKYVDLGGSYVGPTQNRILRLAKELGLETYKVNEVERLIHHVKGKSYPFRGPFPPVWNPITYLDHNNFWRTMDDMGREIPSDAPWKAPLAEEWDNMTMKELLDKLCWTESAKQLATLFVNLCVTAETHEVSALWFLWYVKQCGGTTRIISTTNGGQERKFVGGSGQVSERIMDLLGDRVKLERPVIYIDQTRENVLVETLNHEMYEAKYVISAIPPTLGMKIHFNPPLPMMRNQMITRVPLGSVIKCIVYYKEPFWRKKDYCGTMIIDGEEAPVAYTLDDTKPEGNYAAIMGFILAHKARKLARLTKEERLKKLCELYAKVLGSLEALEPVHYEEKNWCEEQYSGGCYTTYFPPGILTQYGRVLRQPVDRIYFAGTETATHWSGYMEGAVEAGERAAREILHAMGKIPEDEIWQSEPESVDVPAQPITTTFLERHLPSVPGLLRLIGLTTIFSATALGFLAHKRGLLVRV
Mode: inhibitor

SMILES | assay | conditions | measurement | result
C#CCSc1nc(Sc2nnnn2-c2ccccc2)c2nnn(Cc3ccccc3Cl)c2n1 | enzyme activity, luciferase | 1 µM | inhibition | < 10%
Cc1cc(O)c2c(c1)C(=O)c1cc(O)c(O)c(O)c1C2=O | Lineweaver-Burk secondary plot | uncompetitive component | Kiu | 4.46 µM
O=C(/C=C/c1ccc2c(c1)OCO2)c1ccc(Br)s1 | enzyme activity, fluorescence | 1 µM | inhibition | 77.5%
O=C1Nc2ccc(Cl)cc2/C1=N/N=C/c1cccc(OCc2ccccc2)c1 | enzyme activity | 10 µM | remaining activity | 40.6%
Cc1ccc(C(=O)/C=C/c2ccc3c(c2)OCCO3)o1 | enzyme activity, fluorescence | 1 µM | inhibition | 47.8%
O=C1Nc2ccc(Cl)cc2/C1=N/N=C/c1ccc(OCc2cccc(F)c2)cc1 | enzyme activity | 10 µM | remaining activity | 63.6%
O=C(/C=C/c1ccc2c(c1)OCO2)c1cccs1 | enzyme activity, fluorescence | 1 µM | inhibition | 56.3%
O=C1Nc2ccc(F)cc2/C1=N/N=C/c1cccc(OCc2ccccc2)c1 | enzyme activity | 10 µM | remaining activity | 29.7%
Cc1ccc(-c2nc(SCc3cn(CC(=O)NC(=O)Nc4ccccn4)nn3)nc(Nc3cccc(C(F)(F)F)c3)c2C#N)cc1 | enzyme activity, luciferase | 100 µM | inhibition | < 5%

For quick reference, copied from above:
SMILES | assay | conditions | measurement | result
C#CCSc1nc(Sc2nnnn2-c2ccccc2)c2nnn(Cc3ccccc3Cl)c2n1 | enzyme activity, luciferase | 1 µM | inhibition | < 10%
